Published values from different studies.
Values joined by “and” are separate records of one study, mostly repeats; a detail may differ.
Target: Inhibitor of nuclear factor kappa-B kinase subunit alpha (CHUK, Homo sapiens, UniProt O15111)
One construct used (O15111 1-745): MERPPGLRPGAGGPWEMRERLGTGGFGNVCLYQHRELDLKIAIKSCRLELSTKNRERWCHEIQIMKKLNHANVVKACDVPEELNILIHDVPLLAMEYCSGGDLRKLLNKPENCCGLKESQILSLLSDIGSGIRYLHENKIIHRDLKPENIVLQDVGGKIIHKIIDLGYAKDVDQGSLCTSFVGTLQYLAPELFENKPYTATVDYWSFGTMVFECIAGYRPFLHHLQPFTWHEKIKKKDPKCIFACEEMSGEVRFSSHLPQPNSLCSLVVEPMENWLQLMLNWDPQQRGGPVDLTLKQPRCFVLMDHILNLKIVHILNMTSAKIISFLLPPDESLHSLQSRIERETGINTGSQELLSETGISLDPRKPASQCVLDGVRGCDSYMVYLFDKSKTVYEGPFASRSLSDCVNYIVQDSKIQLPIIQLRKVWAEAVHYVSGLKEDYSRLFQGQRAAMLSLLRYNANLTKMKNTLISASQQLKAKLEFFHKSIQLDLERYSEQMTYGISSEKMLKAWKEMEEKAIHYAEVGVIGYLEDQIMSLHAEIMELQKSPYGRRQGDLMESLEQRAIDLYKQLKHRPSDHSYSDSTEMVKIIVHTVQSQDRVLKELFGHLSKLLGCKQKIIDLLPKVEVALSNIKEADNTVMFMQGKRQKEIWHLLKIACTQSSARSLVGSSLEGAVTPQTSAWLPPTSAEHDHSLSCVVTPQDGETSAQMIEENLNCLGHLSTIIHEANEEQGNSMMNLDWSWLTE

CNC(=O)C[C@H](Cc1ccc(C#N)cc1)NC(=O)c1cc(-c2ccc(CN[C@H](C)c3ccc(C)cc3)o2)ccc1Cl
activity vs control (enzyme activity, inhibitor; 1 µM): 96%

Cc1cccc(O[C@H]2CCC[C@@H](C(C)CNCc3ccncc3)C2)c1 (relative stereo)
inhibition (enzyme activity, inhibitor; 10 µM): 12%

Cc1ccc(-c2c(/C=C(\C#N)C(=O)NC(C)C)n(CCCO)c3ncnc(N)c23)cc1
remaining binding (cell-free assay, competition with immobilised ligand; 1 µM): 73%

NC(=O)C[C@H]1CCc2sc3ncnc(O[C@H]4CC[C@H](N5CCOCC5)CC4)c3c21
inhibition (enzyme activity, inhibitor; 10 µM): 3%

CN1CCN(Cc2ccc(NC(=O)c3cccc(C#Cc4cnc(N)c5ncccc45)c3)cc2C(F)(F)F)CC1
remaining binding (cell-free assay, competition with immobilised ligand; 0.5 µM): 0%

O=C(Cc1ccc(OCc2ccccc2)cc1)NC1(C(=O)O)CCN(C(=O)c2ccc(-c3cccc(Cl)c3)cc2)CC1
activity vs control (enzyme activity, inhibitor; 10 µM): 118%

C=CC(=O)Nc1cccc(-c2cnc3[nH]cc(C(=O)NC(C)(C)C)c3n2)c1
inhibition (kinase activity; 0.1 µM): 1%

C=CC(=O)N1CCCC(n2c(=O)c3ncccc3n(Cc3ccc(Oc4ccccc4)cc3)c2=O)C1 (stereo not shown)
remaining binding (cell-free assay, competition with immobilised ligand; 1 µM): 78%

CNC1C[S+]2CC[S+]3CC[S+](C1)[Ru-4]321([N]=C=S)[n]2c3ccc(OC)cc3c3c4c(c5cc(F)c[n+]1c5c32)C(=O)NC4=O (stereo not shown)
remaining binding (KinomeScan; 0.1 µM; baseline: untreated): 99%

CCn1cc(C(=O)O)c(=O)c2c(N)c(F)c(NC3CCCCC3)cc21
inhibition (kinase activity; 0.1 µM, together with: ATP at Km): -2.2%

COc1ccc(NC(=O)Nc2ccc3c(c2)C(=O)N(C(C)CO)CC(C)C(CN(C)Cc2ccc4c(c2)OCO4)O3)cc1 (stereo not shown)
remaining binding (binding, competition with immobilised ligand; 10 µM): 58%

CCN1CCN(Cc2ccc(C(=O)Nc3ccc(C)c(NCc4cnc5[nH]ccc5c4OC)c3)cc2C(F)(F)F)CC1
remaining binding (binding, competition with immobilised ligand; 1 µM): 0.6%

COc1cc(-n2cc3cc(F)cc(C(N)=O)c3n2)cc(Cl)c1C1CC(O)(CCO)Cc2ccccc21 (stereo not shown)
inhibition (enzyme activity, inhibitor; 10 µM): 0.4%

O=C(O)CCC(=O)c1cccc(NS(=O)(=O)c2c[nH]c3ncccc23)c1
remaining activity (kinase activity, radiometric; 10 µM): 115%

CN1CC[C@@H](COc2cnc(C#N)cc2-c2ccn3nc(NC(=O)C4CC4)cc3c2)C1
inhibition (inhibitor, KinaseProfiler panel; 1 µM): 19%

CNS(=O)(=O)Nc1nccc(Cc2c(C)c3ccc(Oc4ncccc4F)cc3oc2=O)c1F
remaining binding (cell-free assay, competition with immobilised ligand; 10 µM): 81%

COCC12C(=O)NC3C4(C(OC)CC1O)C1CC5(O)C(OC)C(O)C(OC(C)=O)(C1C5OC(=O)c1ccccc1)C3(O)C(OC)C24 (stereo not shown)
remaining activity (kinase activity, inhibitor, ProQinase kinase profiling; 25 µM; baseline: control): 87% and 103%

CC(=O)Nc1ccc(-c2ccnc(NCC3CCC3)n2)cc1
remaining binding (cell-free assay, competition with immobilised ligand; 10 µM): 31%

CC(=O)N1c2ccc(-c3ccc(CNC(=O)c4cn5cc(-c6cnc(N)nc6)nc(N6CCOCC6)c5n4)cc3)cc2CC[C@@H]1C
remaining binding (KINOMEscan; 10 µM): 52%

C=CC(=O)N1CCc2ccc(-n3c(=O)ccc4cnc5ccc(-c6cnn(C)c6)cc5c43)cc21
remaining binding (KINOMEscan; 1 µM; baseline: DMSO control): 100%

COc1cc(Nc2nccc(-c3cnn4nc(OC)ccc34)n2)cc(C(F)(F)F)c1
remaining binding (binding, competition with immobilised ligand; 1 µM): 100%

CC(C)=CC1OC(C)(C)C2C=C3C(=O)C(Cl)=CC(O)C3C3C(O)C4OC4C(=O)C132 (stereo not shown)
remaining binding (cell-free assay, competition with immobilised ligand; 10 µM): 61%
